# Experimental data from different studies.
# Protocols differ between the studies behind these lines. ± gives the spread as reported.
# CDK2 with cyclin A: Cyclin-dependent kinase 2, with cyclin A (CDK2, Homo sapiens, UniProt P24941)
# CDK2 with cyclin A1: Cyclin-dependent kinase 2, with cyclin A1 (CDK2, Homo sapiens, UniProt P24941)
# CDK2 with cyclin A2: Cyclin-dependent kinase 2, with cyclin A2 (CDK2, Homo sapiens, UniProt P24941)
# CDK2 with cyclin E: Cyclin-dependent kinase 2, with cyclin E (CDK2, Homo sapiens, UniProt P24941)
Structure (SMILES),target,assay,conditions,scale,remaining activity
Cc1cc(Nc2cc(N3CCN(C)CC3)nc(Sc3ccc(NC(=O)C4CC4)cc3)n2)[nH]n1,CDK2 with cyclin A,"kinase activity, KinaseProfiler","0.03 µM, species human",relative to: control,92%
O=C1NC(=O)/C(=C/c2ccc(-c3ccc(F)cc3O)o2)S1,CDK2 with cyclin A,enzyme activity,10 µM,,89%
CC#CC(=O)N1CCC[C@H]1c1nc(-c2ccc(C(=O)Nc3ccccn3)cc2)c2c(N)nccn12,CDK2 with cyclin A1,"kinase activity, inhibitor, HotSpot radiometric","100 nM, added: ATP 10 µM",,88.8 ± 3.3%
CC(=O)Nc1c(N)nc(SCC(=O)N/N=C/c2ccc([N+](=O)[O-])cc2)[nH]c1=O,CDK2 with cyclin A2,kinase activity,5 nM,,91.6%
CCN(CC)c1ccc(C2=NNC(=O)CC2C)cc1[N+](=O)[O-] (stereo not shown),CDK2 with cyclin A,"enzyme activity, inhibitor",10 µM,relative to: vehicle,114%
CC(=O)Nc1c(N)nc(SCC(=O)NN)[nH]c1=O,CDK2 with cyclin A2,kinase activity,1 nM,,91.7%
O=C(NC1CCC1)c1ccc2nc(-c3cccc(NS(=O)(=O)NCCN4CCCCC4)c3)cn2c1,"CDK2 (Homo sapiens, UniProt P24941)",enzyme activity,10 µM,,95%
COc1ccc(F)cc1C(=O)NCc1ccc(-c2nn([C@@H](C)C(F)(F)F)c(N)c2C(N)=O)cc1,CDK2 with cyclin A1,"kinase activity, inhibitor, HotSpot radiometric","1000 nM, added: ATP at Km",,95.4 ± 1.8%
CCCOc1ccc(OC)c(F)c1C(=O)c1ccc(C(=O)N[C@@H]2CNC[C@H]2NC(=O)c2ccc3[nH]ncc3c2)cc1,CDK2 with cyclin E,enzyme activity,10 µM,,94%
COc1cc(F)ccc1-c1ncnc(Nc2cccc(C[S@](C)(=N)=O)c2)n1,CDK2 with cyclin E,kinase activity,"10 µM, added: 10 µM ATP",,13%

# For quick reference, copied from above:
Structure (SMILES),target,assay,conditions,scale,remaining activity
CCCOc1ccc(OC)c(F)c1C(=O)c1ccc(C(=O)N[C@@H]2CNC[C@H]2NC(=O)c2ccc3[nH]ncc3c2)cc1,CDK2 with cyclin E,enzyme activity,10 µM,,94%
